Measured values pooled from the literature.
Every numbered part comes from another study and shows a few of its results, in no order. Several values in a cell are separate wells, animals, samples, runs or records.
Chain of UniProt Q96Q40 (whole entry, looked up): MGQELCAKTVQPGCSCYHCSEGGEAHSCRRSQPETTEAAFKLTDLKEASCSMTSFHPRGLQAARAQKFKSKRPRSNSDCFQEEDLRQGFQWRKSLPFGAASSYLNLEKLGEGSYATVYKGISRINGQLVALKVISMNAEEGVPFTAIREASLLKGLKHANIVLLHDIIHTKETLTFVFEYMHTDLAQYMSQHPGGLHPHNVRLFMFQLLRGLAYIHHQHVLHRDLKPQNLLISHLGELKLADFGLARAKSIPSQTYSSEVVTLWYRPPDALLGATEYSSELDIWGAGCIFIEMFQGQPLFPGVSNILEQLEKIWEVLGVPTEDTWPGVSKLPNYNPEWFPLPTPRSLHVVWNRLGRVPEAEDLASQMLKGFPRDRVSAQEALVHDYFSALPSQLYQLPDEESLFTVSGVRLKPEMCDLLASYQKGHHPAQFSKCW
Chain of UniProt Q9BXA7 (whole entry, looked up): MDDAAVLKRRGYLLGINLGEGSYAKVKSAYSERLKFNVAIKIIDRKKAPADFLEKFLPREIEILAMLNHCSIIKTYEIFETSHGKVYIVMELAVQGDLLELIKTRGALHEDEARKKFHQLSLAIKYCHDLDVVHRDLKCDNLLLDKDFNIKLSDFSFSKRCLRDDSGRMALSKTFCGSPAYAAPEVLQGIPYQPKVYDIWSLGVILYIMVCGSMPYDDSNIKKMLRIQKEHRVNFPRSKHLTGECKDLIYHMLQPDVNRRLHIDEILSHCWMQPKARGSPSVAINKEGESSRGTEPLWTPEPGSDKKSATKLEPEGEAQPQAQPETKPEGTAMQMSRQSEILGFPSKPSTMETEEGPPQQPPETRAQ
Chain of UniProt Q9NY57 (whole entry, looked up): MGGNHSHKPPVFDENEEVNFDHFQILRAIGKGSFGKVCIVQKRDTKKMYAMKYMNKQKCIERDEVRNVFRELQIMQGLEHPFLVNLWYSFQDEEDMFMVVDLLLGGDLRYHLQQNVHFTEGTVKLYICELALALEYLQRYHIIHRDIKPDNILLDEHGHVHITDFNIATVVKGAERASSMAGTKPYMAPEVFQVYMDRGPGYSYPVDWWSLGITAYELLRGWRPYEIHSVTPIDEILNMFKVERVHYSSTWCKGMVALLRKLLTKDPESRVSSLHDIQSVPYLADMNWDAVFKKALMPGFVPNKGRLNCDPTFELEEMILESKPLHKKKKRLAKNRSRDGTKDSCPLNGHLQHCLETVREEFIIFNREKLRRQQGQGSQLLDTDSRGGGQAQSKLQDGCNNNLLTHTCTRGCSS
Chain of UniProt Q96GD4 (whole entry, looked up): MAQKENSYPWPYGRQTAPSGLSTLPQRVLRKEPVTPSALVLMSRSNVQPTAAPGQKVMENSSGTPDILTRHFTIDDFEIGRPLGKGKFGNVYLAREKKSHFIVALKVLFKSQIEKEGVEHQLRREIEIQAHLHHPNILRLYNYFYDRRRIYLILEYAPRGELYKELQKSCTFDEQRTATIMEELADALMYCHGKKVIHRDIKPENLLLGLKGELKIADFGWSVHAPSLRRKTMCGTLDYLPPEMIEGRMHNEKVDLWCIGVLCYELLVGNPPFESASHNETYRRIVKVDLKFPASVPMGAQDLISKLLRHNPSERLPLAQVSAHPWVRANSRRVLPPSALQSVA
Chain of UniProt P0C264 (whole entry, looked up): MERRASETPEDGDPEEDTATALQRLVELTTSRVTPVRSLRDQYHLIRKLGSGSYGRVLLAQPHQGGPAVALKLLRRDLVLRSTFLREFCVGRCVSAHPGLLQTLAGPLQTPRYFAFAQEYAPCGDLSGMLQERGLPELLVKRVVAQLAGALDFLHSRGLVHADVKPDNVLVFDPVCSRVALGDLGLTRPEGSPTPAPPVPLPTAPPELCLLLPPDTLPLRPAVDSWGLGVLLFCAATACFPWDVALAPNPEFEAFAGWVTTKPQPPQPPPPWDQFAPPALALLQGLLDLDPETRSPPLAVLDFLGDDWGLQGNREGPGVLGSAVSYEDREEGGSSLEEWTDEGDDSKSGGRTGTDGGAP

Block 1
Compound: CO[C@@H]1[C@H](N(C)C(=O)c2ccccc2)C[C@H]2O[C@]1(C)n1c3ccccc3c3c4c(c5c6ccccc6n2c5c31)C(=O)NC4
Action: inhibitor
Concentration: 1 µM
Endpoint: inhibition
STK10 (Homo sapiens, UniProt O94804); enzyme activity: 35%
Ribosomal protein S6 kinase alpha-1, kinase domain 2 (RPS6KA1, Homo sapiens, UniProt Q15418): 0%
CAMK2D (Homo sapiens, UniProt Q13557); enzyme activity: 96%
CDK15 (Homo sapiens, UniProt Q96Q40); enzyme activity: 5%
PLK4 (Homo sapiens, UniProt O00444); enzyme activity: 96%
Tyrosine-protein kinase JAK1, JH2 pseudokinase domain (JAK1, Homo sapiens, UniProt P23458): 73%
NEK10 (Homo sapiens, UniProt Q6ZWH5); enzyme activity: 15%
Tyrosine-protein kinase ABL1, phosphorylated (ABL1, Homo sapiens, UniProt P00519, Y253F); enzyme activity: 23%

Block 2
SMILES: CN1CCN(C(=O)c2ccc(NC(=O)Nc3ccc(N(C)c4ccnc(Nc5ccc(CS(C)(=O)=O)cc5)n4)cc3)cc2)CC1
Concentration: 1 µM
Endpoint: remaining activity
PDGFRB (Homo sapiens, UniProt P09619): 0%
DDR2 (Homo sapiens, UniProt Q16832): 0%
PRKACB (Homo sapiens, UniProt P22694): 100%
CSF1R (Homo sapiens, UniProt P07333): 0%
MTOR (Homo sapiens, UniProt P42345); biochemical: 100%

Block 3
Cell line: mouse MPNST tumor cells
Technique: high-content nuclear imaging
Refers to: cell number
Concentration: 10 µM
Time: 12 h
Setting: mean of 2 replicates
Baseline: plate mean
Direction: higher = more cells
Endpoint: nuclei count
O=C(O)Cc1ccccc1Nc1c(Cl)cccc1Cl: 1.35 z-score
Cc1cc(C)c(-n2ccn3nc(-c4cccnc4)cc23)cc1NC(=O)c1cc(C#N)cc(S(F)(F)(F)(F)F)c1: 0.86 z-score
NCCc1cc[nH]n1: 1.21 z-score
CC1=C(C(=O)Nc2cc3cn[nH]c3cc2F)C(c2ccc(C(F)(F)F)cc2)CC(=O)N1 (stereo not shown): 1.01 z-score
Cc1cnc(C(=O)NCCc2ccc(S(=O)(=O)NC(=O)NC3CCCCC3)cc2)cn1: 2.32 z-score
COc1cc(Nc2ccnc3ccc(Br)cc23)cc(OC)c1OC: -4.57 z-score
C=CC[N@@+]12CC[C@@]34c5ccccc5N5/C=C6/[C@H]7C[C@H]8[C@@]9(CC[N@@+]8(CC=C)C/C7=C/CO)c7ccccc7N(/C=C(/[C@@H](C[C@@H]31)/C(=C\CO)C2)[C@H]54)[C@@H]69: 0.335 z-score

Block 4
SMILES: Cc1cc(C)c(-n2ccn3nc(-c4cccnc4)cc23)cc1NC(=O)c1cc(C#N)cc(S(F)(F)(F)(F)F)c1
Effect on: cell-free assay
Technique: competition with immobilised ligand
Concentration: 0.1 µM
Endpoint: remaining binding
MAP3K15 (Homo sapiens, UniProt Q6ZN16): 48.8%
SRC (Homo sapiens, UniProt P12931): 92.6%
EIF2AK2 (Homo sapiens, UniProt P19525): 96.4%
STK32B (Homo sapiens, UniProt Q9NY57): 94.3%
TEK (Homo sapiens, UniProt Q02763): 3.1%
CDK15 (Homo sapiens, UniProt Q96Q40): 76%
FGFR3 (Homo sapiens, UniProt P22607, G697C): 100%
Tyrosine-protein kinase ABL1, phosphorylated (ABL1, Homo sapiens, UniProt P00519, H396P): 87.5%
IKBKB (Homo sapiens, UniProt O14920): 100%
EGFR (Homo sapiens, UniProt P00533): 85.1%
TSSK1B (Homo sapiens, UniProt Q9BXA7): 100%
GRK7 (Homo sapiens, UniProt Q8WTQ7): 65.6%
MERTK (Homo sapiens, UniProt Q12866): 83.6%
CDK3 (Homo sapiens, UniProt Q00526): 92.4%
CDK8 (Homo sapiens, UniProt P49336): 76.7%
ALK (Homo sapiens, UniProt Q9UM73, L1196M): 99.6%
CAMK2A (Homo sapiens, UniProt Q9UQM7): 95%
Aurora kinase B (AURKB, Homo sapiens, UniProt Q96GD4): 98.8%
EPHB6 (Homo sapiens, UniProt O15197): 3%
PIK3CG (Homo sapiens, UniProt P48736): 98.5%
DDR1 (Homo sapiens, UniProt Q08345): 0.1%
KIT (Homo sapiens, UniProt P10721, D816V): 98.8%
SBK3 (Homo sapiens, UniProt P0C264): 100%
CSNK2A1 (Homo sapiens, UniProt P68400): 74.2%

Block 5
Target: DNA polymerase theta, ATPase domain (POLQ, Homo sapiens, UniProt O75417)
Chain of UniProt O75417 (whole entry, unmodified, looked up): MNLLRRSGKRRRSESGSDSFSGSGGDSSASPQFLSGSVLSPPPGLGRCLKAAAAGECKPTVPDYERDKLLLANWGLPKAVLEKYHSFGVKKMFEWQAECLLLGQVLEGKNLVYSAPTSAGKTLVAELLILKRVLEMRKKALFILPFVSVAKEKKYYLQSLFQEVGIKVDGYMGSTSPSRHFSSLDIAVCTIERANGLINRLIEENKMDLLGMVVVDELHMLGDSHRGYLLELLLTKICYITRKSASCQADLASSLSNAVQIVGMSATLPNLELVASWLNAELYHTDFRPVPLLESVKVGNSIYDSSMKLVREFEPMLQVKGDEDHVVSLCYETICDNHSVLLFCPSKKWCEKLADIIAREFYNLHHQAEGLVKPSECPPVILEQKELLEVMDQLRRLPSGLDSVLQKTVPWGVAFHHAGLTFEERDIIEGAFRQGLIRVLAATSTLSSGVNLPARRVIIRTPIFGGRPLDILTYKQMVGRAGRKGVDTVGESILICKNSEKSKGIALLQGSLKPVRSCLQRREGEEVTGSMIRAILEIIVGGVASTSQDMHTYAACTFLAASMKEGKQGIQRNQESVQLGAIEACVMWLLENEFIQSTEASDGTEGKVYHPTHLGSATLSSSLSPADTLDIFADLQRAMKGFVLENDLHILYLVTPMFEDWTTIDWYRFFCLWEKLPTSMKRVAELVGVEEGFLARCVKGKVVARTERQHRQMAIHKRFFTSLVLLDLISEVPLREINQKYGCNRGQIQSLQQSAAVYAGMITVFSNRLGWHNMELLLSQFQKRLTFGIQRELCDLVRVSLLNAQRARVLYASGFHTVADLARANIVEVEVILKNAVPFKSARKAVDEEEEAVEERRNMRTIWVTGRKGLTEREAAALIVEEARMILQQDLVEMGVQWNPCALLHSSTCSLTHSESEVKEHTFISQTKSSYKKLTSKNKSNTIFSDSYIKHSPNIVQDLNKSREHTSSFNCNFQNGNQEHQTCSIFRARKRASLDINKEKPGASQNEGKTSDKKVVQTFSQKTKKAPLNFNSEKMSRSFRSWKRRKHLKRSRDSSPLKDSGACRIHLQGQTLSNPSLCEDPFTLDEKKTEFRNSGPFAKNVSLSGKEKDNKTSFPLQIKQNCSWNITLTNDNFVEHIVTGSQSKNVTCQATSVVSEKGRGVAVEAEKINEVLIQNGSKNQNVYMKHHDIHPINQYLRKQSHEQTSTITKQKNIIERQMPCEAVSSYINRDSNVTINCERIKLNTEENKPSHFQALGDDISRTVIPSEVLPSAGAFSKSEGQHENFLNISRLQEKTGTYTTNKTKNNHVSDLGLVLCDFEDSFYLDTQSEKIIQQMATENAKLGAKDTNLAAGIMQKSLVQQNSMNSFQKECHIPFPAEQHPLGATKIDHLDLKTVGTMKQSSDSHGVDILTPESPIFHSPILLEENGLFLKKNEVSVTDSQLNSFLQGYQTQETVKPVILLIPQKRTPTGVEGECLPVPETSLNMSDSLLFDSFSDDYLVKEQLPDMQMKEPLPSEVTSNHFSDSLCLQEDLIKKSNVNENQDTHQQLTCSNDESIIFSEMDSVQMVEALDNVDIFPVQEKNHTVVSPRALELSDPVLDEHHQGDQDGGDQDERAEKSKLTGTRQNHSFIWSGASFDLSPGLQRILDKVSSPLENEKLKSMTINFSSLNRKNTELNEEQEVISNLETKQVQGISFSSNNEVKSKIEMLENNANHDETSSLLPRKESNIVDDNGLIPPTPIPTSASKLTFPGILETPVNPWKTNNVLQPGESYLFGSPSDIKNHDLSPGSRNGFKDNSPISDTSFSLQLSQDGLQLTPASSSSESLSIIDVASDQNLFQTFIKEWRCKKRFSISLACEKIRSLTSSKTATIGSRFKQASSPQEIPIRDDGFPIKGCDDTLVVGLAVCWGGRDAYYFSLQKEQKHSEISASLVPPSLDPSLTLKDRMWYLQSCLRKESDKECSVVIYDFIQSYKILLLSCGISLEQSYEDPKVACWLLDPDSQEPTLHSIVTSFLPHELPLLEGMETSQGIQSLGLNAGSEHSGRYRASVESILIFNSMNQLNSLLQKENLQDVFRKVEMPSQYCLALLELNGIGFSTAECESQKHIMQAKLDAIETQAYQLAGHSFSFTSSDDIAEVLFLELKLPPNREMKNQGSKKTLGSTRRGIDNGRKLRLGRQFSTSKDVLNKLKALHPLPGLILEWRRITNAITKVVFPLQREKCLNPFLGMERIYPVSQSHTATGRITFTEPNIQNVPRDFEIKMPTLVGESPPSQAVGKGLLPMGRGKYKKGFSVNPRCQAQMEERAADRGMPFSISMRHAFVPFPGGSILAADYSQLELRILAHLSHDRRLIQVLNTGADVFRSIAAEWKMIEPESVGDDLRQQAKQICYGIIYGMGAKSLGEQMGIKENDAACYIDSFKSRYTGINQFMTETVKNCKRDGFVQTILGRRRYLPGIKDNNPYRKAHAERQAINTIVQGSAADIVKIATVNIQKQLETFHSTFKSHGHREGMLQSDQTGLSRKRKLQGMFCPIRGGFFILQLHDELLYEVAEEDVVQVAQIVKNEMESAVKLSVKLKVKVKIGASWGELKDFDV
Effect on: enzyme activity
Action: inhibitor
Concentration: 77 µM
Baseline: untreated
Endpoint: remaining activity
CC(C)NCC(O)c1ccc2ccccc2c1 (stereo not shown): 99.9%
c1cnc2cc3c(cc2n1)[C@@H]1CNC[C@H]3C1: 99.7%
C[C@@H]1C(=O)NC2=Nc3cccc(Cl)c3CN21: 108%
C[N+]1(C)CCC(=C(c2ccccc2)c2ccccc2)CC1: 97.7% and 95.2%
C=C1CC[C@@H]2[C@](C)(CO)[C@H](O)CC[C@@]2(C)[C@@H]1C/C=C1/C(=O)OC[C@H]1O: 102%
